Results from different studies.
Protocols differ between the studies behind these lines. Numbers after ± are the reported error.
UniProt P08684, sequence (whole entry, looked up): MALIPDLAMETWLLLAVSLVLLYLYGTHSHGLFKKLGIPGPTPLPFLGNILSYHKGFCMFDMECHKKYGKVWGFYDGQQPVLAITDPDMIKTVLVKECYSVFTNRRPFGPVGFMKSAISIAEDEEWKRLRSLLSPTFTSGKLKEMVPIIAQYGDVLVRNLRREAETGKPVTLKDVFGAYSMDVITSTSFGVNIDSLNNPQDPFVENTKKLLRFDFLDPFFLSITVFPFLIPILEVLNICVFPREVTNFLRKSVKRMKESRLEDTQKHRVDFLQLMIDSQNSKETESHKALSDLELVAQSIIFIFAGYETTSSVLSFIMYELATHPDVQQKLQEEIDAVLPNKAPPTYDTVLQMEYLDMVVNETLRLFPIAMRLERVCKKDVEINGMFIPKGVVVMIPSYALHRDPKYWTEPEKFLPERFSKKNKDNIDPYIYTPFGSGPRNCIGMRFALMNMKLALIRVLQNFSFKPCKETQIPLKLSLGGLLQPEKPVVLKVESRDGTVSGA

`[64Cu+2].c1cnc(CNCc2ccc(CN3CCCN4CCNCCCN(CC4)CC3)cc2)nc1` has a tissue uptake of 0.96 ± 0.19 %ID/g (CXCR4; NOD/SCID mouse, U87 and U87-stb-CXCR4 xenografts, blood; iv, 90 min, ex vivo, added: AMD3465 25 mg/kg sc before tracer).
`Oc1ccc2nc1CNCCNCCNC2`: “sum of log K N-donors” 22.8 (pH-potentiometric titration; I 0.15 M NaCl, 298 K).
`Cn1c(=O)oc2ccc(-c3ccc(CC(C#N)NC(=O)C4CNCCCO4)c(F)c3)cc21` (stereo not drawn): “share of subjects with TEAE” 0% (refers to: white blood cells in urine; human volunteers; 40 mg single dose, fasted).
For `NC(=O)[C@@H](CCCCNC(=O)CNC(=O)CCC(=O)NCCc1c[nH]cn1)NC(=O)[C@@H](CCC(=O)O)NC(=O)[C@@H](CCCCNC(=O)CNC(=O)CCC(=O)NCCc1c[nH]cn1)NC(=O)[C@@H](Cc1ccc(O)cc1)NC(=O)CN1CCN(CC(=O)O)CCN(CC(=O)O)CCN(CC(=O)O)CC1` [indium-111 labelled], “muscle activity concentration” read 0.068 %ID/kg (SPECT; human CEACAM5 tumour patients; dose not given, 24 h, 100 µg IMP288, added: TF2 75 mg, 5 days interval).
`CCCCCCCC(=O)OC[C@H](NC(=O)[C@H](CO)NC(=O)CN)C(=O)N[C@@H](Cc1ccccc1)C(=O)N[C@@H](CC(C)C)C(=O)N[C@@H](CO)C(=O)N1CCC[C@H]1C(=O)N[C@@H](CCC(=O)O)C(=O)N[C@@H](Cc1cnc[nH]1)C(=O)N[C@@H](CCC(N)=O)C(=O)N[C@@H](CCCNC(=N)N)C(=O)N[C@H](C(=O)N[C@@H](CCC(N)=O)C(=O)N[C@@H](CCC(N)=O)C(=O)N[C@@H](CCCNC(=N)N)C(=O)N[C@@H](CCCCN)C(=O)N[C@@H](CCC(=O)O)C(=O)N[C@@H](CO)C(=O)N[C@@H](CCCCN)C(=O)N[C@@H](CCCCN)C(=O)N1CCC[C@H]1C(=O)N1CCC[C@H]1C(=O)N[C@@H](C)C(=O)N[C@@H](CCCCN)C(=O)N[C@@H](CC(C)C)C(=O)N[C@@H](CCC(N)=O)C(=O)N1CCC[C@H]1C(=O)N[C@@H](CCCNC(=N)N)C(=O)O)C(C)C` gave a heart rate of 71.3 ± 13.5 bpm (chronic HFrEF patients non-paced; intravenous infusion, 0.1 µg/kg/min, 60 min of infusion).
`CN(C(=O)c1ccn2ncc(-c3ccc(C(N)=O)cc3)c2c1)c1ccc(C#N)cn1` has an AUC of 1.9 µM·h (neonatal male Friesian-Holstein calf, plasma; oral, 5 mg/kg, days 1 and 7).
For `CC(=O)[CH](C(C)=O)[Pt-2]1([S+](C)C)[O]C(C)=CC(C)=[O+]1` (stereo not drawn), the ALT was 29.7 ± 8.3 U/L (rat, blood; intravenous, 10 mg/kg, single dose).
`CC[C@@H](C)N([11CH3])C(=O)c1nc(-c2ccc(Cl)cc2)c2ccccc2n1` — result for “time to 50% parent radioligand in plasma”: 13.9 min (rhesus monkey male, plasma; intravenous, TSPO preblock).
`COc1ccc2cc(NC(=O)c3cc(-c4cccnc4)nc4ccccc34)ccc2c1` has a Km of 8.7 µM (Cytochrome P450 3A4 (CYP3A4, Homo sapiens, UniProt P08684); substrate, LC-MS, refers to: hydroxylated metabolite M1; baculosomes).
The depolymerization half-life of `CCC(=O)N[C@@H](C)C(=O)OCC(=O)N[C@@H](C)C(=O)O` is reported as 24.3 days (water; pH 5, 37 °C).
Under “absorbed radiation dose”, `[11CH3]c1ccc2nc(C3CCC3)n(-c3ccc4[nH]ncc4c3)c2n1` is recorded as 6.3 µSv/MBq (human female, kidneys).
The AUC(0-t) of `O=C(CCc1ccc(CNC(C(=O)O)C2CCCCC2)cn1)NO` (stereo not drawn) is reported as 89.4 ng·h/mL (human, plasma; oral, 20 mg once daily, day 7, geometric mean).
For `CC(=O)N[C@H](CC(=O)O)C(=O)N[C@H](Cc1c[nH]c2ccccc12)C(=O)N[C@H](Cc1ccccc1)C(=O)N[C@H](CCCCN)C(=O)N[C@H](C)C(=O)N[C@H](Cc1ccccc1)C(=O)N[C@H](Cc1ccc(O)cc1)C(=O)N[C@H](CC(=O)O)C(=O)N[C@H](CCCCN)C(=O)N[C@@H](C(=O)N[C@H](C)C(=O)N[C@H](CCC(=O)O)C(=O)N[C@H](CCCCN)C(=O)N[C@H](Cc1ccccc1)C(=O)N[C@H](CCCCN)C(=O)N[C@H](CCC(=O)O)C(=O)N[C@H](C)C(=O)N[C@H](Cc1ccccc1)C(N)=O)C(C)C`, the AUC(0-t) was 11.6 ng·h/mL (statin-treated high-risk CHD women, plasma; oral, 100 mg daily, day 13, 0 to 8 h, mean, undetectable set to 0).
Under “Kirkwood-Buff integral G1,3”, `C#CCOc1ccc(/C=C2\SC(=O)N(CC(=O)NCc3ccccc3)C2=O)cc1` is recorded as -259 cm³/mol (inverse Kirkwood-Buff integrals; binary solvent mixture; 298.15 K, mole fraction x1 0.85).
`COc1cc(OC)cc(C2=C3C(C)=C(I)C(C)=[N+]3[B-](F)(F)n3c(C)c(I)c(C)c32)c1` has a Stokes shift of 439 cm⁻¹ (DMSO).
For `CCCC(CCC)NC(=O)c1ccc(O)c(OC2OC(C(=O)O)C(O)C(O)C2O)c1` (stereo not drawn), “metabolite peak area” read 0.98% (LC-MS; Sprague-Dawley rats, pooled sexes, plasma; oral, 200 mg/kg of parent drug, 1 h; relative to: total peak area).
`NC[C@@H](C(=O)Nc1ccc(-c2cn[nH]c2)cc1)c1ccccc1` gave an iris score of 0 (OECD 405 eye irritation; New Zealand White rabbit, eye; topical, 0.1%, 97 h (day 5), scale 0 to 2; direction not given).
Under “fractional contribution τ3”, `Nc1nc(-n2nnc3c2CCC2C(CO)C2CC3)nc2c1ncn2C1OC(CO)C(O)C1O` (mixture of isomers) is recorded as 0.05% (fluorescence lifetime; methanol).
`N=C(N)NCCC[C@@H]1NC(=O)[C@H](Cc2c[nH]c3ccccc23)NC(=O)[C@@H](CC2CCCCC2)NC(=O)[C@@H]2CCCN2C(=O)[C@@H](NC(=O)CCc2ccccc2)CCCNC1=O`: “central volume (V1/F)” less than 0.01 mL (two-compartment model; C57BL/6J mice, plasma; intraperitoneal, 1 mg/kg).
`COc1cc(NC(C)=O)c2c(c1O)-c1c(OC)c(OC)cc3c1C(C2)N(C)CC3` (stereo not drawn) has a remaining compound of 92.3 ± 4.7% (rat lung homogenate; 50 µg/mL, 24 h, room temperature, post-preparative storage).
`[64Cu+2].c1ccc(CNCc2ccc(CN3CCCN4CCNCCCN(CC4)CC3)cc2)nc1` has a tissue uptake of 2.13 ± 0.31 %ID/g (CXCR4; NOD/SCID mouse, U87 and U87-stb-CXCR4 xenografts, stomach; iv, 60 min, ex vivo).
With `CC(C)(O)c1ncc([S@](N)(=O)=NC(=O)Nc2c3c(cc4c2CCC4)CCC3)s1` the dose-normalised AUC(0-tau) was 905 ng·h/mL/mg (healthy human volunteers, plasma; oral, 200 mg once daily, day 14, spray-dried dispersion).
`COC[C@@H](CC(C)C)NC(=O)c1ccc(C)c(CO)c1` — result for “metabolite peak area”: less than 1% (LC-MS; Sprague-Dawley rats, pooled sexes, plasma; oral, 100 mg/kg of parent drug, 1 h; relative to: total metabolite peak area).
`CN(C)CCCn1c2ccc([N+](=O)[O-])cc2c(=O)n1Cc1ccccc1` has a selectivity index of 0.4 (Leishmania amazonensis; promastigotes, MHOM/BR/77/LTB0016; relative to: CC50 macrophages over IC50 promastigotes).
`CC(C)Cn1c(SCC(=O)N2CCc3ccccc3C2)nc2cc(Cl)ccc2c1=O` gave a compound remaining of 0.1% (metabolic stability; rat, liver microsomes; 1 h).
`Cc1nc(C)c(C=[N+]([O-])C(C)(C)C)nc1C`: “protein level increase” 84% (Western blot, refers to: Akt phospho-Ser473; mouse, MPTP model; 10 mg/kg).
`Cc1ccc(-c2ccc(-c3cc4sccc4o3)cn2)nc1`: “radiative decay rate constant” 0.4 ns⁻¹ (TCSPC; EtOH).
With `CCNC(=O)OCc1c(COC(=O)NCC)c(-c2ccc(OC)cc2)n2c1Cc1ccccc1-2` the AST activity was 60 ± 6.3 U/L (BALB/c nude mice, blood; dose not given, day 10).
`CCCC[C@H](NC(=O)[C@H](CC(C)C)N(C)C(=O)CNC(=O)[C@@H](NC(=O)[C@H](Cc1ccccc1)NC(=O)[C@H](CCCCN)NC(=O)[C@@H](N)CC(=O)O)C(C)C)C(N)=O`: “heart rate change” -1.56 ± 3.26% (anaesthetised Sinclair minipig; sublingual, 5 mg/kg, lyophilised tablet; relative to: baseline).
The uptake ratio of `CCCC[C@H](NC(=O)CNC(=O)CNC(=O)CN1CCN(CC(=O)O)CCN(CC(=O)O)CC1)C(=O)N[C@H]1CC(=O)NCCCC[C@@H](C(N)=O)NC(=O)[C@H](Cc2c[nH]c3ccccc23)NC(=O)[C@H](CCCNC(=N)N)NC(=O)[C@@H](Cc2ccccc2)NC(=O)[C@H](Cc2c[nH]cn2)NC1=O` [copper-64 labelled] is reported as 37.5 (female C57 mouse, B16/F1 melanoma; intravenous, 0.037 MBq, 2 h; relative to: tumour over blood).
`CCc1cc(Nc2nc(-c3ccc(-n4cnc(C)c4)c(F)c3)cs2)c(C)cc1C` — result for “apparent clearance (CL/F)”: 44100 mL/h (human, plasma; oral, 200 mg once daily, day 14, multiple dose, geometric mean).
For `Cc1ccc(OCC(=O)N(Cc2cccs2)c2ccn[nH]2)cc1`, the Vd was 0.593 L/kg (male beagle dog, plasma; intravenous, 1 mg/kg, single dose).
Under “share of radioactivity”, `C=CC(=O)Nc1cc(Nc2nccc(-c3cn(C4CC4)c4ccccc34)n2)c(OC)cc1NC` is recorded as 3.45% (LC-RAM/HRMS; human male, plasma; oral, 110 mg, 10 h; relative to: total radioactivity).
`CC(C)(C)NCC(SS(=O)(=O)O)c1ccccc1` (stereo not drawn) gave an MRT of 6.96 min (Swiss Webster CFW mouse, female, plasma; intravenous, 15 mg/kg, from 0 h to last).
Under “patients with treatment-related adverse event”, `CC(C)c1cnc(-c2cc(Cl)ccc2F)cc1Nc1ccncc1C(=O)NC(CO)CO` is recorded as 0% (monotherapy, refers to: rash; human patients; oral, dose not given, grade 3, phase I A).
The selectivity index of `Cn1c2ccc([N+](=O)[O-])cc2c(=O)n1Cc1ccccc1` is reported as 2 (Leishmania amazonensis; promastigotes, MHOM/BR/77/LTB0016; relative to: CC50 macrophages over IC50 promastigotes).
